Assay results gathered from unrelated publications.
Lines come from different studies, so protocols differ. Numbers after ± are the reported error.

Amino acid sequences for entries named in this document (tags omitted).
UniProt P35348, whole entry: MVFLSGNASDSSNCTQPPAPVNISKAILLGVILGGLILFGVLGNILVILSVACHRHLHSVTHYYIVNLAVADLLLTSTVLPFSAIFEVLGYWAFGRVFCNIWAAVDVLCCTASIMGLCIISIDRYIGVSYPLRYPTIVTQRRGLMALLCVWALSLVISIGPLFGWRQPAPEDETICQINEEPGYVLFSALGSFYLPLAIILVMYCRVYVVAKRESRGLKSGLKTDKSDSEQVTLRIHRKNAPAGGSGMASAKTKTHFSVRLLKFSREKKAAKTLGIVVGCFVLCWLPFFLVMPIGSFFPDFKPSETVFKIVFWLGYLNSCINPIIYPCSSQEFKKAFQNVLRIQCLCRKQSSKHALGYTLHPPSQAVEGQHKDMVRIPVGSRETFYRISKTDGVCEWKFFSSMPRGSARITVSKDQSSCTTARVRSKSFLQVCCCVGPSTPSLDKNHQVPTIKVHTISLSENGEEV
UniProt P35372, whole entry: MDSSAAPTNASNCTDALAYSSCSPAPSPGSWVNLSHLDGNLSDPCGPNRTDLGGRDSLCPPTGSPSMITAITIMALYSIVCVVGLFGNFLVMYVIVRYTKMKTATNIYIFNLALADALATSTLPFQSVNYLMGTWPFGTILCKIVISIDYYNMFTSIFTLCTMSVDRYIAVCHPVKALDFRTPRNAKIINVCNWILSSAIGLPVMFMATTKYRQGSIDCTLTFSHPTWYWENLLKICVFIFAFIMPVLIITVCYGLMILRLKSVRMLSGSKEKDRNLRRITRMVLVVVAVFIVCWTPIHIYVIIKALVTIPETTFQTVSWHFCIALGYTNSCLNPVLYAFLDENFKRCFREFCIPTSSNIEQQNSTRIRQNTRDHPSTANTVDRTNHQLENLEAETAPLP
UniProt P0C0H6, whole entry: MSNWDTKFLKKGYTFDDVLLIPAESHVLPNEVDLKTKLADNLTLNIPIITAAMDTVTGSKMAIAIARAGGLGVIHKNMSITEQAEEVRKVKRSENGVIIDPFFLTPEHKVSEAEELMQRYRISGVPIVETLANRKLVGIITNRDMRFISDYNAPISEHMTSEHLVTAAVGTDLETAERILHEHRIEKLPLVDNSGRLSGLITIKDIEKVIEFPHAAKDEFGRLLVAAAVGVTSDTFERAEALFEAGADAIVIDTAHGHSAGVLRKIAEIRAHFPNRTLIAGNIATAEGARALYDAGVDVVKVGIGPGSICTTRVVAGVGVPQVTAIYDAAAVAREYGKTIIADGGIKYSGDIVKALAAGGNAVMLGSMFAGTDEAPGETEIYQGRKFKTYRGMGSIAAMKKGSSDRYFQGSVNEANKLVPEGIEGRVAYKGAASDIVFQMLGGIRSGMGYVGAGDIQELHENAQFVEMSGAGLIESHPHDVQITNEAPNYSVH
UniProt P9WPP7, whole entry: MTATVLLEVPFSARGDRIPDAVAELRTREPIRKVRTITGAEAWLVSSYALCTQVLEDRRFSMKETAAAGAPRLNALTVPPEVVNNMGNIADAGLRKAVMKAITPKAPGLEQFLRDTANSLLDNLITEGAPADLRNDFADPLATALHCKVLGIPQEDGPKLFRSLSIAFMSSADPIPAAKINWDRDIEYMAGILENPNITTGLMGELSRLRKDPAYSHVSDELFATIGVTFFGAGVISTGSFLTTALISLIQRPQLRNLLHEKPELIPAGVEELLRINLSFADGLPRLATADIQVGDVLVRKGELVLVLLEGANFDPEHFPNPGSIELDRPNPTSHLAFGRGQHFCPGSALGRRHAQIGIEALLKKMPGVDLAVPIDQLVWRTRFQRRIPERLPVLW
UniProt P67660, whole entry L212A, looked up: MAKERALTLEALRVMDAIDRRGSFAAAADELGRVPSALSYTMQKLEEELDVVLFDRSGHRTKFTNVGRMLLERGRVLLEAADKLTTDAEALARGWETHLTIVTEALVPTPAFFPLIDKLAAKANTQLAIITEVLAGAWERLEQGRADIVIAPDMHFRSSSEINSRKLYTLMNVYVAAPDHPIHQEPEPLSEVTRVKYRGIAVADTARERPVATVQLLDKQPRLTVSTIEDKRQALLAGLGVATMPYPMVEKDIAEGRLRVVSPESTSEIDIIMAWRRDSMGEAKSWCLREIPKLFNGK
UniProt P33535, whole entry: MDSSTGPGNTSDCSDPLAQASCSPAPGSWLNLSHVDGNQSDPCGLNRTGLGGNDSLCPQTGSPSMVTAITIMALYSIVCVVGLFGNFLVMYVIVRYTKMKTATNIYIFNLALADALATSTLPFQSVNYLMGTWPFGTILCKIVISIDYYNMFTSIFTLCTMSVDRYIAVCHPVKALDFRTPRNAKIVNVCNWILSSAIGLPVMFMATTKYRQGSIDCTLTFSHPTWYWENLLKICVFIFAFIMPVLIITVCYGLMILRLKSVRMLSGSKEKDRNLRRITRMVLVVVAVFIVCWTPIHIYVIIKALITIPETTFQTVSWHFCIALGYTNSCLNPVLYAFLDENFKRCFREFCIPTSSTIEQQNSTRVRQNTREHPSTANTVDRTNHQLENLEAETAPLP
UniProt P36888, whole entry, looked up: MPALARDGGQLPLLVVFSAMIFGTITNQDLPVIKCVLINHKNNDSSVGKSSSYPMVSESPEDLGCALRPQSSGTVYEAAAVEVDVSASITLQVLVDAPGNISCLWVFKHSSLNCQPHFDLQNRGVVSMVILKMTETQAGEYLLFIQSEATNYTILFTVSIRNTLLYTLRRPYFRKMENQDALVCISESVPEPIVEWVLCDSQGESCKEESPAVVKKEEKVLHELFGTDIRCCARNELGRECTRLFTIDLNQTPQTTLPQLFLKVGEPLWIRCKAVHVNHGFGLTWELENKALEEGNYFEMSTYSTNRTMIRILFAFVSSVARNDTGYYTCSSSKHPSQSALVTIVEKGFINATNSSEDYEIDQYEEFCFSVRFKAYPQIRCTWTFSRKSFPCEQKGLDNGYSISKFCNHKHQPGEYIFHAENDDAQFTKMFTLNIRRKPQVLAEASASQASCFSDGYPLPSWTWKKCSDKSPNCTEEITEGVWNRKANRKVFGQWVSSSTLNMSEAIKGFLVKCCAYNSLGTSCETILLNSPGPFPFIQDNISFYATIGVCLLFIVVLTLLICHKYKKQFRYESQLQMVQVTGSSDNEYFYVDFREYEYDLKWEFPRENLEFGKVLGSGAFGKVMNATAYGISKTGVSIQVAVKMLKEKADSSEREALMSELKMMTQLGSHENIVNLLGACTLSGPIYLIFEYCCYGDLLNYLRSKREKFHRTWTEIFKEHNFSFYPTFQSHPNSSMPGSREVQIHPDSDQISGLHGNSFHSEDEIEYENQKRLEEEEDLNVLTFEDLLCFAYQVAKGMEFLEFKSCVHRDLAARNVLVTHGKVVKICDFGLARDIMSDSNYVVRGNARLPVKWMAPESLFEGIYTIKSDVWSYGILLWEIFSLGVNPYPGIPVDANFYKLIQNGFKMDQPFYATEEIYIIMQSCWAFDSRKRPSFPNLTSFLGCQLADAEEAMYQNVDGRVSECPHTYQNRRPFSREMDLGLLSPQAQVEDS
UniProt Q00534, whole entry: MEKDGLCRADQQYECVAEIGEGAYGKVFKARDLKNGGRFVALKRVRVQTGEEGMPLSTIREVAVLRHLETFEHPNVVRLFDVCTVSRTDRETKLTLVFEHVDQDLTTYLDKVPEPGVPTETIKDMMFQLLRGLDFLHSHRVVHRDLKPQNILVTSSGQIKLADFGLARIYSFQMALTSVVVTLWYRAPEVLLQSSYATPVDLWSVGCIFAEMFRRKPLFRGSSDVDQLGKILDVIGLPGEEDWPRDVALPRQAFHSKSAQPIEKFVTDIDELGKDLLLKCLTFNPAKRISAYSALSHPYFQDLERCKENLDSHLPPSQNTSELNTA
UniProt P41145, whole entry: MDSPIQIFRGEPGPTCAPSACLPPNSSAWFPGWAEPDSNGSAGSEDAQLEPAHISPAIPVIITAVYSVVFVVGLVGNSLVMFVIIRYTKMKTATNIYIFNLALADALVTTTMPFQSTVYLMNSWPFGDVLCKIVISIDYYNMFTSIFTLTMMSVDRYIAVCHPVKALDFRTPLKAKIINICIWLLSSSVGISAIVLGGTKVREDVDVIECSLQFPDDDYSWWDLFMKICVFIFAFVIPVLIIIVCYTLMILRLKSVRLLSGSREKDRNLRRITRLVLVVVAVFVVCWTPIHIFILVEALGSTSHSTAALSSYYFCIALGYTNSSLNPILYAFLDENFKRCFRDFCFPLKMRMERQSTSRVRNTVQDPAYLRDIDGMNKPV
UniProt P30281, whole entry partner: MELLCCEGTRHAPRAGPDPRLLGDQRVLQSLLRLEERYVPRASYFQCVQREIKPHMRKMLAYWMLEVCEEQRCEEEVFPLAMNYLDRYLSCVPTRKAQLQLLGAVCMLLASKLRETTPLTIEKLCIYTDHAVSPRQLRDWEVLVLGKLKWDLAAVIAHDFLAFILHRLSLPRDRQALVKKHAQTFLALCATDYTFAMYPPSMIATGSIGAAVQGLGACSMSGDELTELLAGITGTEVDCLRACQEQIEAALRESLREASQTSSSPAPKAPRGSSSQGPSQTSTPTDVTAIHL

For `CCCN1CCN(c2ccc3c(c2)C2CC3CCN2C(=O)OCc2ccccc2)CC1` (centres unmarked), the Ki was 2670 nM (Alpha-1A adrenergic receptor (ADRA1A, Homo sapiens, UniProt P35348); binding, radioligand binding).
`CO[C@]12CC[C@@]3(C[C@@H]1[C@H](O)c1ccccc1)[C@H]1Cc4ccc(O)c5c4[C@@]3(CCN1CC1CC1)[C@H]2O5` gave an EC50 of 10.4 ± 2.7 nM (Mu-type opioid receptor (OPRM1, Homo sapiens, UniProt P35372); G-protein activation, agonist; reference: DAMGO).
For `O=C(Cn1c(-c2ccccn2)nc2ccccc21)Nc1ccc2ccccc2c1`, the IC50 was 0.7 nM (Inosine-5'-monophosphate dehydrogenase (Streptococcus pyogenes, UniProt P0C0H6); enzyme activity, inhibitor; corrected for open conformation).
With `C=CC(c1ccc(-c2ccc(O)cc2)cc1)n1ccnc1` (centres unmarked) the Kd was 0.0072 ± 0.0005 mM (Mycocyclosin synthase (cyp121, Mycobacterium tuberculosis, UniProt P9WPP7)).
With `Cc1cc(O)ccc1O` the Kd was 9 ± 3.7 mM (Probable HTH-type transcriptional regulator YhaJ, effector-binding domain (yhaJ, Escherichia coli, UniProt P67660, L212A); microscale thermophoresis; pH 7.5).
The Ki of `CO[C@]12CC[C@@]3(C[C@@H]1[C@](C)(O)c1cc(C)cc(C)c1)[C@H]1Cc4ccc(O)c5c4[C@@]3(CCN1CC1CC1)[C@H]2O5` is reported as 0.28 ± 0.16 nM (Mu-type opioid receptor (Oprm1, Rattus norvegicus, UniProt P33535); binding, radioligand displacement; C6 rat glioma; with: [3H]diprenorphine).
`CC#C/C(=N\OC[C@H]1COCCN1)c1ccc2ncnc(Nc3ccc(OCc4cccc(F)c4)c(Cl)c3)c2c1` gave an inhibition of 7.1% (Receptor-type tyrosine-protein kinase FLT3 (FLT3, Homo sapiens, UniProt P36888); kinase activity; 10 µM).
The EC50 of `CCN1CCN(Cc2ccc(NC(=O)c3ccc(C)c(/C=C/c4cnc5[nH]ccc5c4OC)c3)cc2C(F)(F)F)CC1` is reported as 238 nM (ETV6-FLT3 fusion; kinase-CDC37 interaction, inhibitor, cell-based).
`CC1(C)S[C@@H]2CS[C@@H](CS)N2[C@H]1C(=O)O` gave a Ki of 80 ± 10 nM (Metallo-beta-lactamase VIM-2 (VIM-2, Escherichia coli, UniProt Q5U7L7, R205L); nitrocefin hydrolysis, slow-binding inhibitor; Klebsiella pneumoniae; with: nitrocefin).
`Fc1cccc(-n2cnc3c(NCc4nc5cc(Cl)ccc5[nH]4)nc(N4CCNCC4)nc32)c1` gave an IC50 of 4420 nM (Cyclin-dependent kinase 6, with cyclin D3 (CDK6, Homo sapiens, UniProt Q00534); enzyme activity, inhibitor).
For `CC[C@@](O)(c1ccccc1)[C@H]1C[C@@]23C=C[C@]1(OC)[C@@H]1Oc4c(O)ccc5c4[C@@]12CCN(CC1CC1)[C@@H]3C5`, the EC50 was 56.6 ± 11 nM (Kappa-type opioid receptor (OPRK1, Homo sapiens, UniProt P41145); G-protein activation, agonist).

For quick reference, copied from above:
For `O=C(Cn1c(-c2ccccn2)nc2ccccc21)Nc1ccc2ccccc2c1`, the IC50 was 0.7 nM (Inosine-5'-monophosphate dehydrogenase (Streptococcus pyogenes, UniProt P0C0H6); enzyme activity, inhibitor; corrected for open conformation).
With `C=CC(c1ccc(-c2ccc(O)cc2)cc1)n1ccnc1` (centres unmarked) the Kd was 0.0072 ± 0.0005 mM (Mycocyclosin synthase (cyp121, Mycobacterium tuberculosis, UniProt P9WPP7)).
